Measurements pooled from the literature.
Compare with care: the assays were run in different laboratories. ± gives the spread as reported.
Cnr2: Cannabinoid receptor 2 (Cnr2, Mus musculus, UniProt P47936)
Chain of UniProt P47936 (whole entry, looked up): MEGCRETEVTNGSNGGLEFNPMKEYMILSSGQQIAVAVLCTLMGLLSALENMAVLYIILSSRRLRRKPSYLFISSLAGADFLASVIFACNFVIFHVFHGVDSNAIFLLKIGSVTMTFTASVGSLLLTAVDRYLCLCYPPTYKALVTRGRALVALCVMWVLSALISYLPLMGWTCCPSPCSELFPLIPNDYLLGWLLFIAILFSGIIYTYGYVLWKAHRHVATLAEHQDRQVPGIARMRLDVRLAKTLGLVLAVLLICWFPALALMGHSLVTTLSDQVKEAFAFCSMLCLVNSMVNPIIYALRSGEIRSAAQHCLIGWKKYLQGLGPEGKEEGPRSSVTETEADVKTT
STING1 H232R: Stimulator of interferon genes protein (STING1, Homo sapiens, UniProt Q86WV6, H232R)
Chain of UniProt Q86WV6 (whole entry, unmodified, looked up): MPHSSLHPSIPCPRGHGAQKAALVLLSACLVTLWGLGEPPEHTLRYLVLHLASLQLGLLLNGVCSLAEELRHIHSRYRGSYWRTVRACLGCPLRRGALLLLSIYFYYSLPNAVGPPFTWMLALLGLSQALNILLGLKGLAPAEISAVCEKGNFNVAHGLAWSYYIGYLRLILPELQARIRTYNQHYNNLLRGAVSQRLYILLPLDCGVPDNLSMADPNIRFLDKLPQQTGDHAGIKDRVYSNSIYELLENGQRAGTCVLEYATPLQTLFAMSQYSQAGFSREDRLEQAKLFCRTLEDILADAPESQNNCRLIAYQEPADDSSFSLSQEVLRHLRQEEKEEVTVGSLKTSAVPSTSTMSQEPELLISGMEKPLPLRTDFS
Chain of UniProt Q8NHB7 (whole entry, unmodified, looked up): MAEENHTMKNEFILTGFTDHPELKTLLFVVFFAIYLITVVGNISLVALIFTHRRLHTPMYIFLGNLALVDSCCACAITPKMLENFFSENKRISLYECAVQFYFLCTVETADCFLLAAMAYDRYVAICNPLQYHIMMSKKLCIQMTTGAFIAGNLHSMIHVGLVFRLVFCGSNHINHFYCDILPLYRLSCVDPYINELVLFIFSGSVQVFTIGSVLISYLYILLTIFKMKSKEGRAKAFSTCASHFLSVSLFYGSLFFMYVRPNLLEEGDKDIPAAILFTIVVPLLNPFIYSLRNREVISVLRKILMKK
Chain of UniProt P17858 (whole entry, looked up): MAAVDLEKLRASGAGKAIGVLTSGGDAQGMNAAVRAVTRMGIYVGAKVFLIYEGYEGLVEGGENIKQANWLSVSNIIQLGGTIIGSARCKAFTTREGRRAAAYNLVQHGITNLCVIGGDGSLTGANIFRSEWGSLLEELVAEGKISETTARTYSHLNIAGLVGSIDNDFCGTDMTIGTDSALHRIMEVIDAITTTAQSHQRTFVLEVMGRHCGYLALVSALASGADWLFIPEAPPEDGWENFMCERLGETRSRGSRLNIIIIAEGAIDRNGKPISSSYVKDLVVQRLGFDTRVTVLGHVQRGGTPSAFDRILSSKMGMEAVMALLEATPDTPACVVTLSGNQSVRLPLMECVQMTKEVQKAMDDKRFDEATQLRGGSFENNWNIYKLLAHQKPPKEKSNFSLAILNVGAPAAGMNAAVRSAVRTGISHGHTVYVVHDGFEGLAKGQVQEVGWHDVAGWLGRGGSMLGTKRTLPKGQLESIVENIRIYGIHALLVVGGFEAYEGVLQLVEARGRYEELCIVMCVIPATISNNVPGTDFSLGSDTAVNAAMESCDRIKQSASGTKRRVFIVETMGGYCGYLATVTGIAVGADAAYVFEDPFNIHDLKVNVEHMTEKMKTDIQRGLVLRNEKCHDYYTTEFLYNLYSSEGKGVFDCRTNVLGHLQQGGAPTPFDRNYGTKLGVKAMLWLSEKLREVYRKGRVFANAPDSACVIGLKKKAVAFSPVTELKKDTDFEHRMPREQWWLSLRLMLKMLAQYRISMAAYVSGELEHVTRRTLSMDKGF
Chain of UniProt P32302 (whole entry, looked up): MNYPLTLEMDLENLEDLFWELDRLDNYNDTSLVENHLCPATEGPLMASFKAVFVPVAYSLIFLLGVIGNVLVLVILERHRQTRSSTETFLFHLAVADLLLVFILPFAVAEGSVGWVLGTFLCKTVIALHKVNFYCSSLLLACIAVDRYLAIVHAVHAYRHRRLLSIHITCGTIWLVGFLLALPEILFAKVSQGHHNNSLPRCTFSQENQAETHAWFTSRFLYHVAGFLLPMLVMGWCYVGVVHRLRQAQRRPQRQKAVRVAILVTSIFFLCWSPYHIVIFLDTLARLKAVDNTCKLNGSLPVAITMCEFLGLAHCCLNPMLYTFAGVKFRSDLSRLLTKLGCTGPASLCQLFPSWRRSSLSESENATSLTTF
Chain of UniProt P43220 (whole entry, unmodified, looked up): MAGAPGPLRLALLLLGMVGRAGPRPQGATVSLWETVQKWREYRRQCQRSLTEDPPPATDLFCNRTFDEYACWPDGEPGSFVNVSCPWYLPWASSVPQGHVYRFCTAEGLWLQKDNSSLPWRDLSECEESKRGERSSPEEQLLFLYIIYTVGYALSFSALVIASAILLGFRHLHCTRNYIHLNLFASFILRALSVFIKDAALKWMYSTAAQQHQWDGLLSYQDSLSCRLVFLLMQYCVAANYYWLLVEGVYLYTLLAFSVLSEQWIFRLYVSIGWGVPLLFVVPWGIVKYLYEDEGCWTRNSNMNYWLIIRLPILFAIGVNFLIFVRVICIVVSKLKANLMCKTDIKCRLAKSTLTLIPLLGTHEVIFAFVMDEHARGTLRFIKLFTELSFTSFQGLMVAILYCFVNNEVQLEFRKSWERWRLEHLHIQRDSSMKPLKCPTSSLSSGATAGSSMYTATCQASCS
Chain of UniProt P47871 (whole entry, looked up): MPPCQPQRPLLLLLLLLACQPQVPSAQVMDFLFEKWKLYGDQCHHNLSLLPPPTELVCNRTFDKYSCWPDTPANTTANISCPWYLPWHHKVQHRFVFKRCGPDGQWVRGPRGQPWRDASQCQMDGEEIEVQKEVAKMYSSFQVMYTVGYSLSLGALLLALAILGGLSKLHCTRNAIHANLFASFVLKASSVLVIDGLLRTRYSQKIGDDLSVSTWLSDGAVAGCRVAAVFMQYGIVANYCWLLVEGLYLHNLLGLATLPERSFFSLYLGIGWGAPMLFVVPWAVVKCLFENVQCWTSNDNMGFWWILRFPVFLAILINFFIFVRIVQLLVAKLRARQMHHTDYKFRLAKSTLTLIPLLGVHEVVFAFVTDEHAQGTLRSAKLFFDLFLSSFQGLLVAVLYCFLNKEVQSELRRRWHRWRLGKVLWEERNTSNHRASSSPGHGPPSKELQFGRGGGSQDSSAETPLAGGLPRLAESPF
Chain of UniProt Q92847 (whole entry, looked up): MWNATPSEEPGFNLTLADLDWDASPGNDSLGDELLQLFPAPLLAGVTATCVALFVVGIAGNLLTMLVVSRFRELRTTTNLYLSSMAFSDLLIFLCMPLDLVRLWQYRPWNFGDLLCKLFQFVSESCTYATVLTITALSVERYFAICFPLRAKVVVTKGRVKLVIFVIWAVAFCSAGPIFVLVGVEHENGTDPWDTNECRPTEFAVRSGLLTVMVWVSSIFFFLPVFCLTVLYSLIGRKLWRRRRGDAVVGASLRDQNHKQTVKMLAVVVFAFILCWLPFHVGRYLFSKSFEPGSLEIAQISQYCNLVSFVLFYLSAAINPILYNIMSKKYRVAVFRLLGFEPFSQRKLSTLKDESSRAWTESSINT
Chain of UniProt P30988 (whole entry, looked up): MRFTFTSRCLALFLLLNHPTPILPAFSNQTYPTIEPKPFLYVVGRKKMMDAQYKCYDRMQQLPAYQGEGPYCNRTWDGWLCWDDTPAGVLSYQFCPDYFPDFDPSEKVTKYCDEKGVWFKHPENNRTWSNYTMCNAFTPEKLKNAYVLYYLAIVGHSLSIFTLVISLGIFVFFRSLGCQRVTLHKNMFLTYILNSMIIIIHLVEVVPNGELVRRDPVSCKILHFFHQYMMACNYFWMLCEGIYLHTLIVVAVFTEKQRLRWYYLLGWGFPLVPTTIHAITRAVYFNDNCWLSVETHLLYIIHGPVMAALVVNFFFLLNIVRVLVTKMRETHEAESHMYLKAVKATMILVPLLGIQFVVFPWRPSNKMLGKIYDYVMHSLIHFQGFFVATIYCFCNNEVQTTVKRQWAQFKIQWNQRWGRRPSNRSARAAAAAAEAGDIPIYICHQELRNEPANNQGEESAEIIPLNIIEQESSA
Chain of UniProt Q92633 (whole entry, unmodified, looked up): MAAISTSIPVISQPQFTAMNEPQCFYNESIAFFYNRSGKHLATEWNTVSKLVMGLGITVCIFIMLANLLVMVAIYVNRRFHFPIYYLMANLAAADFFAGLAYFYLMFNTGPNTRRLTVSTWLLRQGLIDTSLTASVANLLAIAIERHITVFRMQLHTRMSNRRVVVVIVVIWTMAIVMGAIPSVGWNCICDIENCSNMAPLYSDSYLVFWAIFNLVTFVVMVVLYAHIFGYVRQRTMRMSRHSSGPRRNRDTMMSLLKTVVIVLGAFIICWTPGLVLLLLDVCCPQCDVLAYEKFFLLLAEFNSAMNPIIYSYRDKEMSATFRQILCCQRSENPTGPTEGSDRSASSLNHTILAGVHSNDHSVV
Chain of UniProt O80920 (whole entry, looked up): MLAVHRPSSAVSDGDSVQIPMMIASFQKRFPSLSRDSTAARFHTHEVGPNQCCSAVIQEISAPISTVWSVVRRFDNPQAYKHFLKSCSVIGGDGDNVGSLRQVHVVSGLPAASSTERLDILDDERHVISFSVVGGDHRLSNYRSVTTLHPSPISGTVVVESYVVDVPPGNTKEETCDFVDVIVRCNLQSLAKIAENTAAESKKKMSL
Chain of UniProt O60896 (whole entry, looked up): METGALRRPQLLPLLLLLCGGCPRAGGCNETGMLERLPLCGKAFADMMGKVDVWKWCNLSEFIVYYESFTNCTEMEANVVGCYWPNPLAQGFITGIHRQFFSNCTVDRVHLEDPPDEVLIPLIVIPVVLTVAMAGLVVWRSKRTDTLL

For `CCOC(=O)C(CC)(CCCSCCOCCNc1ccc([N+](=O)[O-])c2nonc12)NC(=O)c1ccc(C2CC2)c(Cc2ccc(F)cc2)n1` (centres unmarked), the EC50 was 0.181 µM (Cnr2; cAMP, agonist).
For `CC1CCc2nccnc21` (centres unmarked), the EC50 was over 1500 µM (OR5K1 (Homo sapiens, UniProt Q8NHB7); cAMP, agonist).
`CCCCCCCC/C=C\CCCCCCCC(=O)OCC(O)COP(=O)(O)O` (centres unmarked) gave an EC50 of 0.0389 µM (LPAR1 (Homo sapiens, UniProt Q92633, W271F); Gi activation, agonist, NanoBiT G-protein dissociation; HEK293T; W271F mutant).
For `C#Cc1ccc(C(=O)N[C@@H](CCNC(=O)c2ccc([N+](=O)[O-])o2)c2nc3ccccc3[nH]2)cc1`, the EC50 was 13.6 µM (STING1 H232R; reporter gene, inhibitor; THP1-Dual KI-hSTING-R232; 24 h, 1 h preincubation, with: diABZI 500 nM).
`O=S(=O)(c1ccc2c(c1)OCO2)n1cc(CCCCN2CCC(=C(c3ccc(F)c(F)c3)c3ccc(F)c(F)c3)CC2)nn1` has an EC50 of 0.746 µM (PFKL (Homo sapiens, UniProt P17858); enzyme activity, activator, ADP-Glo; 0.5).
`Cn1c(C2(NC(=O)c3ccc(-c4ccccc4)cc3)CCN(C(=O)c3ccc([N+](=O)[O-])o3)CC2)nc2ccccc21` gave an EC50 of over 40 µM (STING1 H232R; reporter gene, inhibitor; THP1-Dual KI-hSTING-R232; 24 h, 1 h preincubation, with: diABZI 500 nM).
With `CC[C@H](C)[C@H](NC(=O)[C@H](Cc1ccccc1)NC(=O)[C@H](CCC(=O)O)NC(=O)[C@H](CCCCN)NC(=O)[C@H](C)NC(=O)[C@H](C)NC(=O)[C@H](CCC(N)=O)NC(=O)[C@H](CCC(=O)O)NC(=O)[C@H](CC(=O)O)NC(=O)[C@H](CC(C)C)NC(=O)[C@H](Cc1ccc(O)cc1)NC(=O)[C@H](CCCCN)NC(=O)[C@H](CO)NC(=O)[C@H](Cc1ccc(O)cc1)NC(=O)[C@H](CC(=O)O)NC(=O)[C@H](CO)NC(=O)[C@@H](NC(=O)[C@H](Cc1ccccc1)NC(=O)[C@@H](NC(=O)CNC(=O)[C@H](CCC(N)=O)NC(=O)[C@H](CO)NC(=O)[C@@H](N)Cc1cnc[nH]1)[C@@H](C)O)[C@@H](C)O)C(=O)N[C@@H](C)C(=O)N[C@@H](Cc1c[nH]c2ccccc12)C(=O)N[C@@H](CC(C)C)C(=O)N[C@@H](CCSC)C(=O)N[C@@H](CC(N)=O)C(=O)N[C@H](C(N)=O)[C@@H](C)O` the EC50 was 7.24e-05 µM (Glucagon receptor (GCGR, Homo sapiens, UniProt P47871); cAMP, agonist, TR-FRET).
`O=C(NC[C@@H](Cc1ccc(F)cc1)N1CCC(O)(C(F)(F)F)CC1)C1(c2ccc(Cl)cc2)CCCC1` has an EC50 of 0.11 µM (TRPA1 (Homo sapiens, UniProt O75762, M953V)).
With `NC(=O)C[C@H](N)C(=O)N[C@@H](Cc1c[nH]c2ccccc12)C(=O)N[C@@H](Cc1ccccc1)C(N)=O` the EC50 was over 501 µM (uncharacterized protein (Aplysia californica, UniProt A0ABM0K1K5); IP1 accumulation, agonist; CHO-K1 cells, transfected; inactive, value is lower bound).
`CCOC(=O)[C@](CC)(CCCSCCOCCOCCNC(=O)OC(C)(C)C)NC(=O)c1ccc(C2CC2)c(Cc2ccc(F)cc2)n1` gave an EC50 of 0.019 µM (Cnr2; cAMP, agonist).
The EC50 of `COc1ccc(C(=O)c2c(C(=O)NCCCN(C)C)oc3ccc(Cl)cc3c2=O)cc1OC` is reported as 0.055 µM (GHSR (Homo sapiens, UniProt Q92847); SRF-RE reporter gene; HEK293T).
The EC50 of `CCOC(=O)C(CC)(CCCSCCOCCNC(=O)OC(C)(C)C)NC(=O)c1ccc(C2CC2)c(Cc2ccc(F)cc2)n1` (centres unmarked) is reported as 0.015 µM (Cnr2; cAMP, agonist).
`O=C(Nn1c(-c2cccc(Cl)c2)nc2ccccc2c1=O)c1ccccc1` gave an EC50 of 0.27 ± 0.08 µM (TRPM channel TRPM_PZQ (Fasciola hepatica, UniProt A0A4E0RBW4); whole-cell inward current, activator, automated patch clamp; HEK293).
`CC[C@H](C)[C@@H](C(=O)N[C@@H](CC(C)C)C(=O)N[C@@H](CO)C(=O)N[C@@H](CO)C(=O)N[C@H](C(=O)N[C@@H](CCC(=O)O)C(=O)N[C@H](C(=O)NCC(=O)N[C@@H](CO)C(=O)N[C@@H](CC(N)=O)C(=O)N[C@H](C(=O)N1C[C@H](O)C[C@H]1C(N)=O)[C@@H](C)O)C(C)C)[C@@H](C)O)N(C)C(=O)[C@H](C)NC(=O)CN(C)C(=O)[C@H](Cc1ccccc1)NC(=O)[C@H](CO)NC(=O)[C@H](CO)NC(=O)[C@H](CCCNC(=N)N)NC(=O)[C@H](CCC(N)=O)NC(=O)[C@H](CC(C)C)NC(=O)[C@H](Cc1ccccc1)NC(=O)[C@H](Cc1c[nH]cn1)NC(=O)[C@H](C)NC(=O)[C@H](CC(C)C)NC(=O)[C@H](CCCNC(=N)N)NC(=O)[C@H](CCC(=O)O)NC(=O)[C@@H](NC(=O)[C@H](C)NC(=O)[C@@H]1CC(=O)NC[C@H](NC(=O)[C@H](CCCNC(=N)N)NC(=O)CC[C@H](NC(=O)CCCCCCCCCCCCCCCCCCC(=O)O)C(=O)O)C(=O)NCC(=O)N[C@@H]([C@@H](C)O)C(=O)N[C@@H](C)C(=O)N[C@@H]([C@@H](C)O)C(=O)N1)[C@@H](C)O` has an EC50 of over 10 µM (Amylin receptor AMY3; CALCR/RAMP3 (Homo sapiens, UniProt O60896+P30988); cAMP accumulation, agonist; COS-7 expressing AMY3 receptor).
With `O=C(NCC[C@H](NC(=O)c1cnc(-c2ccccc2)s1)c1nc2ccccc2[nH]1)c1ccc([N+](=O)[O-])o1` the EC50 was 11.1 µM (STING1 H232R; reporter gene, inhibitor; THP1-Dual KI-hSTING-R232; 24 h, 1 h preincubation, with: diABZI 500 nM).
`[N-]=[N+]=Nc1c(C2CC2)cc(CC(=O)NC2(C(=O)O)CCCCC2)cc1C1CC1` has an EC50 of 29.2 ± 2.64 µM (PYL4 (Arabidopsis thaliana, UniProt O80920); phosphatase activity recovery, antagonist; with: HAB1, ABA 5000 nM).
`O=C(NC1(c2nc3ccccc3[nH]2)CCN(C(=O)c2ccc([N+](=O)[O-])o2)CC1)c1ccc(-c2ccccc2)cc1` gave an EC50 of 26.7 µM (STING1 H232R; reporter gene, inhibitor; THP1-Dual KI-hSTING-R232; 24 h, 1 h preincubation, with: diABZI 500 nM).
`CCOC(=O)[C@](CC)(CCCSCCOCCOCCNC(=O)c1ccc(C(=O)[O-])c(C2=C3C=CC(=[N+](C)C)C=C3[Si](C)(C)c3cc(N(C)C)ccc32)c1)NC(=O)c1ccc(C2CC2)c(Cc2ccc(F)cc2)n1` gave an EC50 of 0.066 µM (Cnr2; cAMP, agonist).
The EC50 of `O=C(NCC[C@H](NC(=O)c1ncc(-c2ccccc2)s1)c1nc2ccccc2[nH]1)c1ccc([N+](=O)[O-])o1` is reported as 5.5 µM (STING1 H232R; reporter gene, inhibitor; THP1-Dual KI-hSTING-R232; 24 h, 1 h preincubation, with: diABZI 500 nM).
With `CC1=NC(C)C(C)S1` (centres unmarked) the EC50 was 1480 µM (OR5K1 (Homo sapiens, UniProt Q8NHB7, A2T/T15M/Y193C); cAMP, agonist).
The EC50 of `CC(=O)c1ccc(-c2ccc(C(=O)N[C@@H](CCNC(=O)c3ccc([N+](=O)[O-])o3)c3nc4ccccc4[nH]3)o2)cc1` is reported as 9.8 µM (STING1 H232R; reporter gene, inhibitor; THP1-Dual KI-hSTING-R232; 24 h, 1 h preincubation, with: diABZI 500 nM).
`CCOC(=O)C(CC)(CCCSCCOCCOCCN)NC(=O)c1ccc(C2CC2)c(Cc2ccc(F)cc2)n1` (racemic) has an EC50 of 0.045 µM (Cnr2; cAMP, agonist).
With `O=C(NCC[C@H](NC(=O)[C@H]1C[C@H](c2ccccc2)C1)c1nc2ccccc2[nH]1)c1ccc([N+](=O)[O-])o1` the EC50 was 6.4 µM (STING1 H232R; reporter gene, inhibitor; THP1-Dual KI-hSTING-R232; 24 h, 1 h preincubation, with: diABZI 500 nM).
The EC50 of `O=C(Cc1ccc(OCc2ccccc2)cc1)NC1(C(=O)O)CCN(C(=O)c2ccc(-c3cccc(Cl)c3)cc2)CC1` is reported as over 10 µM (CXCR5 (Homo sapiens, UniProt P32302); cAMP, agonist, luciferase).
`O=C(N[C@@H](CCCCNC(=O)c1ccc([N+](=O)[O-])o1)c1nc2ccccc2[nH]1)c1ccc2ccccc2c1` has an EC50 of 11.1 µM (STING1 H232R; reporter gene, inhibitor; THP1-Dual KI-hSTING-R232; 24 h, 1 h preincubation, with: diABZI 500 nM).
`COc1cc(C2C(NC(=O)c3ccc(NC(=O)OC(C)(C)C)cc3)(C(=O)O)C(c3ccc(OC(=O)c4cccs4)c(OC)c3)C2(NC(=O)c2ccc(NC(=O)OC(C)(C)C)cc2)C(=O)O)ccc1OC(=O)c1cccs1` (centres unmarked) has an EC50 of 0.195 µM (GLP1R (Homo sapiens, UniProt P43220, V229A); cAMP, agonist).

Some of these lines once more:
`CC[C@H](C)[C@@H](C(=O)N[C@@H](CC(C)C)C(=O)N[C@@H](CO)C(=O)N[C@@H](CO)C(=O)N[C@H](C(=O)N[C@@H](CCC(=O)O)C(=O)N[C@H](C(=O)NCC(=O)N[C@@H](CO)C(=O)N[C@@H](CC(N)=O)C(=O)N[C@H](C(=O)N1C[C@H](O)C[C@H]1C(N)=O)[C@@H](C)O)C(C)C)[C@@H](C)O)N(C)C(=O)[C@H](C)NC(=O)CN(C)C(=O)[C@H](Cc1ccccc1)NC(=O)[C@H](CO)NC(=O)[C@H](CO)NC(=O)[C@H](CCCNC(=N)N)NC(=O)[C@H](CCC(N)=O)NC(=O)[C@H](CC(C)C)NC(=O)[C@H](Cc1ccccc1)NC(=O)[C@H](Cc1c[nH]cn1)NC(=O)[C@H](C)NC(=O)[C@H](CC(C)C)NC(=O)[C@H](CCCNC(=N)N)NC(=O)[C@H](CCC(=O)O)NC(=O)[C@@H](NC(=O)[C@H](C)NC(=O)[C@@H]1CC(=O)NC[C@H](NC(=O)[C@H](CCCNC(=N)N)NC(=O)CC[C@H](NC(=O)CCCCCCCCCCCCCCCCCCC(=O)O)C(=O)O)C(=O)NCC(=O)N[C@@H]([C@@H](C)O)C(=O)N[C@@H](C)C(=O)N[C@@H]([C@@H](C)O)C(=O)N1)[C@@H](C)O` has an EC50 of over 10 µM (Amylin receptor AMY3; CALCR/RAMP3 (Homo sapiens, UniProt O60896+P30988); cAMP accumulation, agonist; COS-7 expressing AMY3 receptor).
With `O=C(NCC[C@H](NC(=O)c1cnc(-c2ccccc2)s1)c1nc2ccccc2[nH]1)c1ccc([N+](=O)[O-])o1` the EC50 was 11.1 µM (STING1 H232R; reporter gene, inhibitor; THP1-Dual KI-hSTING-R232; 24 h, 1 h preincubation, with: diABZI 500 nM).
